{"data": "Published values collected from several papers", "note": "Lines come from different studies, so protocols differ. ± gives the spread as reported."}
{"SMILES": "CCCCCCCC(=O)SCC/C=C/[C@@H]1CC(=O)NCc2nc(cs2)C2=N[C@@](C)(CS2)C(=O)N[C@@H](C(C)C)C(=O)N1", "test system": "mouse NIH Swiss, female", "conditions": "intravenous, 5 mg/kg", "measurement": "alpha rate constant", "result": "0.248 min⁻¹"}
{"SMILES": "CNC(=O)c1ncn2c(=O)n(C)nnc12", "test system": "mouse CD-1 male, liver microsomes", "conditions": "50 µM, 2 h, pH 7.4", "how to read": "reference: time zero", "measurement": "remaining compound", "result": "86 ± 1%"}
{"SMILES": "CC(C)(CCCC/C=C/CCCCCC(C)(C)C(=O)O)C(=O)O", "test system": "ICR mouse, plasma", "conditions": "intravenous, 10 mg/kg", "measurement": "clearance", "result": "1.31 mL/min/kg"}
{"SMILES": "COc1ccc2sc3c(c2c1)SCCNC3=O", "test system": "mouse, plasma", "conditions": "iv, 25 mg/kg", "measurement": "clearance", "result": "121 mL/min/kg"}
{"SMILES": "CC[C@H](C)C(=O)N1CCC(NC(=O)Nc2ccc(OC(F)(F)F)c(F)c2)CC1", "test system": "human, plasma", "conditions": "oral, 8 mg, single dose, healthy volunteers", "measurement": "Tmax", "result": "1.25 h"}
{"SMILES": "C[C@@H]1CC[C@H]2[C@@H](C)CO[C@@H]3O[C@@]4(C)CC[C@@H]1[C@]32OO4", "test": "item: compound", "test system": "rat, plasma", "conditions": "2.00 ng/mL spiked, 30 days, long-term storage at -80 °C", "measurement": "stability accuracy", "result": "102%"}
{"SMILES": "COc1ccc(NC(=O)Cn2c(=O)c3ccccc3n(CC(=O)Nc3cc([125I])c(OC)cc3OC)c2=O)cc1", "test system": "rat, heart", "conditions": "intravenous, 5 min", "measurement": "tracer uptake", "result": "0.39 %ID/g"}
{"SMILES": "COc1ccc(-c2oc3ccc(-c4cc(OC)c(OC)c(OC)c4)cc3c2C#CC(C)(C)O)cc1", "test": "metabolic stability", "test system": "mouse, liver microsomes", "measurement": "half-life", "result": "> 0.5 h"}
{"SMILES": "CCNc1cc2[o+]c3cc(NCC)c(C)cc3c(-c3ccccc3C(=O)OCCOCC[18F])c2cc1C", "test system": "rat", "conditions": "60 min", "how to read": "reference: heart over blood", "measurement": "tissue uptake ratio", "result": 18.9}
{"SMILES": "C=C1C(=O)O[C@@H]2[C@H]1CC[C@H](C)[C@@]1(O[Si](C)(C)C)C=CC(=O)[C@@]21C", "test": "propidium iodide flow cytometry", "test system": "primary splenocytes, BALB/c mouse", "conditions": "48 h, 10% fetal calf serum", "measurement": "CC50", "result": "0.5 ± 0.7 µg/mL"}
{"SMILES": "CC(C)[C@H](NC(=O)CNC(=O)[C@H](CCC(N)=O)NC(=O)[C@H](C)N)C(=O)O", "test system": "human", "conditions": "intravenous infusion, 90 mg/kg/h, 2 h, relatedness Possibly", "how to read": "reference: subjects", "measurement": "drug-related adverse events", "result": "0%"}
{"SMILES": "[11CH3]Oc1ccc(C(=O)Nc2cc(-c3ccc(I)cc3)no2)cc1", "test system": "mouse, brain", "conditions": "intravenous, 20 min", "measurement": "parent compound fraction", "result": "67 ± 6%"}
{"SMILES": "CN(C)C(CNC(=O)Nc1cc(C(F)(F)F)ccc1N1CCOCC1)c1ccncc1 (stereo not shown)", "test system": "mouse, serum", "conditions": "intraperitoneal, 240 mg/kg single dose", "measurement": "serum calcium", "result": "8.6 mg/dL"}
{"SMILES": "CC(C)[C@@H]1NC(=O)[C@H](Cc2ccccc2)NC(=O)[C@H](Cc2ccc(O)cc2)NC(=O)CCSSC[C@@H](C(=O)N2CCC[C@H]2C(=O)N[C@H](CCCNC(=N)N)C(=O)NCC(N)=O)NC(=O)[C@H](CCC(N)=O)NC1=O", "test system": "Wistar rat, blood", "conditions": "intravenous, 10 µg/kg single dose, 72 h", "measurement": "GGT", "result": "3.2 ± 1.1 IU/L"}
{"SMILES": "CN[C@](C)(C[18F])C(=O)O", "test system": "mouse, muscle", "conditions": "2 h, tumour-bearing", "measurement": "tracer uptake", "result": "1.1 %ID/g"}
{"SMILES": "CC[C@H](C)[C@H](NC(=O)[C@H](CC(=O)O)NC(=O)[C@H](CO)NC(=O)[C@H](CCC(N)=O)NC(=O)[C@H](C)NC(=O)[C@H](CC(=O)O)NC(=O)[C@H](CCC(=O)O)NC(=O)[C@H](Cc1c[nH]cn1)NC(=O)[C@H](Cc1ccc(O)cc1)NC(=O)[C@H](C)NC(=O)[C@H](CC(=O)O)NC(=O)[C@H](CCC(=O)O)NC(=O)[C@H](Cc1c[nH]cn1)NC(=O)[C@H](Cc1ccc(O)cc1)NC(=O)[C@H](C)NC(=O)[C@H](CC(=O)O)NC(=O)[C@H](CCC(=O)O)NC(=O)[C@H](Cc1c[nH]cn1)NC(=O)[C@H](Cc1ccc(O)cc1)NC(=O)[C@H](C)NC(=O)[C@H](CC(=O)O)NC(=O)[C@H](CCC(=O)O)NC(=O)[C@H](Cc1c[nH]cn1)NC(=O)[C@H](Cc1ccc(O)cc1)NC(=O)[C@H](C)NC(=O)[C@H](CC(=O)O)NC(=O)[C@H](CCC(=O)O)NC(=O)[C@H](Cc1c[nH]cn1)NC(=O)[C@@H](N)Cc1ccc(O)cc1)C(=O)N[C@H](C(=O)N[C@@H](C)C(=O)N[C@@H](Cc1c[nH]cn1)C(=O)N[C@@H](CC(C)C)C(=O)N[C@@H](CC(C)C)C(=O)O)C(C)C", "test system": "normal mouse", "conditions": "dose not given", "measurement": "serum creatinine", "result": "0.51 ± 0.05 mg/dL"}
{"SMILES": "CCCCCCCCCCCCCCCC(=O)N[C@@H](Cc1c[nH]cn1)C(=O)N[C@@H](Cc1ccccc1)C(=O)N[C@@H](CCCNC(=N)N)C(=O)N[C@@H](Cc1c[nH]c2ccccc12)C(=O)NCC(=O)N[C@@H](CCCCN)C(=O)N1CCC[C@H]1C(=O)N[C@H](C(N)=O)C(C)C", "test system": "mouse erythrocytes", "conditions": "up to 62.5 µM, 1 h", "how to read": "reference: Triton X-100", "measurement": "hemolysis", "result": "≤ 1%"}
{"SMILES": "C/C=C/C=C/C/C=C/CCCCCCCc1cccc(O)c1O", "test system": "female Kunming mice tumour-bearing, kidneys", "conditions": "intravenous, 10 mg/kg, 0.5 h", "measurement": "tissue concentration", "result": "30500 ± 3060 ng/g"}
{"SMILES": "[CH3][Ti+2][O]C(=O)c1ccc([S][Au][PH](c2ccccc2)(c2ccccc2)[c-]2cccc2)cc1.[Fe+2].c1cc[cH-]c1.c1cc[cH-]c1.c1cc[cH-]c1", "test system": "DMSO/water", "conditions": "5 × 10 µM", "measurement": "pH", "result": 5.21}
{"SMILES": "[11CH3]n1c(=O)n(CCCO)c(=O)c2c1nc(Oc1cccc(OC(F)(F)F)c1)n2Cc1ccc(Cl)cc1", "test": "ex vivo biodistribution", "test system": "Sprague Dawley rat, kidney", "conditions": "30 min post injection", "measurement": "tracer uptake", "result": "1.34 ± 0.05 %ID/g"}
{"SMILES": "CCCCCCCCCCCCCCCC(=O)NCCCC[C@H](NC(=O)[C@H](CCC(=O)O)NC(=O)[C@H](Cc1ccc(O)cc1)NC(=O)[C@H](CCC(=O)O)NC(=O)COCC(=O)NCCCOCCOCCOCCCNC(=O)[C@H](Cc1ccccc1)NC(=O)[C@H](CC(N)=O)NC(=O)[C@H](Cc1c[nH]cn1)NC(=O)[C@@H](NC(=O)[C@H](CC(=O)O)NC(=O)[C@H](CCC(N)=O)NC(=O)[C@H](CC(C)C)NC(=O)[C@H](CCCCN)NC(=O)[C@H](CCCCN)NC(=O)[C@H](CCCNC(=N)N)NC(=O)[C@H](CC(C)C)NC(=O)[C@H](Cc1c[nH]c2ccccc12)NC(=O)[C@H](CCC(=O)O)NC(=O)[C@@H](NC(=O)[C@H](CCCNC(=N)N)NC(=O)[C@H](CCC(=O)O)NC(=O)[C@H](CCSC)NC(=O)[C@H](CO)NC(=O)[C@H](CC(N)=O)NC(=O)[C@H](CC(C)C)NC(=O)[C@H](Cc1c[nH]cn1)NC(=O)[C@H](CCCCN)NC(=O)CNC(=O)[C@H](CC(C)C)NC(=O)[C@H](CC(N)=O)NC(=O)[C@H](Cc1c[nH]cn1)NC(=O)[C@H](CCSC)NC(=O)[C@H](CC(C)C)NC(=O)[C@H](CCC(N)=O)NC(=O)[C@@H](NC(=O)[C@H](CCC(=O)O)NC(=O)[C@H](CO)NC(=O)[C@@H](NC(=O)[C@@H](N)CO)C(C)C)[C@@H](C)CC)C(C)C)C(C)C)C(=O)N[C@@H](CCC(=O)O)C(=O)N[C@@H](Cc1ccc(O)cc1)C(=O)N[C@@H](CCC(=O)O)C(N)=O", "test": "ELISA", "test system": "CD-1 mice, blood", "conditions": "sc, 10 nmol/kg", "how to read": "reference: compound over (1-34)", "measurement": "Tmax ratio", "result": "~6"}
{"SMILES": "CC(CCC(=O)NCC(=O)O)C1CCC2C3C(O)CC4CC(OC5OC(C(=O)O)C(O)C(O)C5O)CCC4(C)C3CCC12C (stereo not shown)", "test system": "human, SLCO1B1 *14/*15, plasma", "conditions": "geometric mean, sex-adjusted", "measurement": "plasma concentration", "result": "25.6 ng/mL"}
{"SMILES": "CC1(C)C(=CC=CC=CC2=[N+](CCCCN=[N+]=[N-])c3ccc(S(=O)(=O)[O-])cc3C2(C)C)N(CCCCCC(=O)O)c2ccccc21", "test system": "PBS", "measurement": "molar absorption coefficient", "result": "189000 M⁻¹ cm⁻¹"}
{"SMILES": "CSCC[C@@H]1NC(=O)[C@@H]2CSSC[C@H](NC(=O)[C@H](CO)NC(=O)[C@H](C)N)C(=O)N[C@@H](CCCNC(=N)N)C(=O)N[C@@H]([C@@H](C)O)C(=O)N3CCC[C@H]3C(=O)N[C@@H](CCCCN)C(=O)N[C@@H](CC(=O)O)C(=O)N[C@H]3CSSC[C@H](NC(=O)[C@H](CCCCN)NC(=O)[C@H](CCCNC(=N)N)NC(=O)[C@H](CC(N)=O)NC1=O)C(=O)N[C@@H](CCCCN)C(=O)N[C@H]1CSSC[C@H](NC(=O)[C@@H]4CCCN4C(=O)[C@H](CC(=O)O)NC(=O)[C@H](C)NC3=O)C(=O)N[C@@H](C)C(=O)N[C@@H](CCCCN)C(=O)N[C@@H](CCC(=O)O)C(=O)N[C@@H]([C@@H](C)O)C(=O)NCC(=O)N[C@@H](CSSC[C@@H](C(N)=O)NC(=O)[C@H](CCCNC(=N)N)NC(=O)[C@H](CC(N)=O)NC1=O)C(=O)N1CCC[C@H]1C(=O)N[C@@H](Cc1ccc(O)cc1)C(=O)NCC(=O)N[C@@H](CCCCN)C(=O)N2", "test system": "DA rat pristane-induced arthritis, serum", "conditions": "subcutaneous, 0.1 mg/kg every other day, 21 days", "measurement": "Magnesium", "result": "1.94 mg/dL"}
{"SMILES": "C[C@]12CC[C@H](OCC[18F])C[C@H]1CC[C@@H]1[C@@H]2CC[C@]2(C)[C@@H](c3ccc(=O)oc3)CC[C@]12O", "test": "radio-HPLC", "test system": "mouse serum", "conditions": "6 h, 36 °C", "measurement": "radiochemical purity", "result": "> 95%"}
{"note": "A few entries again:"}
{"SMILES": "CC1(C)C(=CC=CC=CC2=[N+](CCCCN=[N+]=[N-])c3ccc(S(=O)(=O)[O-])cc3C2(C)C)N(CCCCCC(=O)O)c2ccccc21", "test system": "PBS", "measurement": "molar absorption coefficient", "result": "189000 M⁻¹ cm⁻¹"}
{"SMILES": "CSCC[C@@H]1NC(=O)[C@@H]2CSSC[C@H](NC(=O)[C@H](CO)NC(=O)[C@H](C)N)C(=O)N[C@@H](CCCNC(=N)N)C(=O)N[C@@H]([C@@H](C)O)C(=O)N3CCC[C@H]3C(=O)N[C@@H](CCCCN)C(=O)N[C@@H](CC(=O)O)C(=O)N[C@H]3CSSC[C@H](NC(=O)[C@H](CCCCN)NC(=O)[C@H](CCCNC(=N)N)NC(=O)[C@H](CC(N)=O)NC1=O)C(=O)N[C@@H](CCCCN)C(=O)N[C@H]1CSSC[C@H](NC(=O)[C@@H]4CCCN4C(=O)[C@H](CC(=O)O)NC(=O)[C@H](C)NC3=O)C(=O)N[C@@H](C)C(=O)N[C@@H](CCCCN)C(=O)N[C@@H](CCC(=O)O)C(=O)N[C@@H]([C@@H](C)O)C(=O)NCC(=O)N[C@@H](CSSC[C@@H](C(N)=O)NC(=O)[C@H](CCCNC(=N)N)NC(=O)[C@H](CC(N)=O)NC1=O)C(=O)N1CCC[C@H]1C(=O)N[C@@H](Cc1ccc(O)cc1)C(=O)NCC(=O)N[C@@H](CCCCN)C(=O)N2", "test system": "DA rat pristane-induced arthritis, serum", "conditions": "subcutaneous, 0.1 mg/kg every other day, 21 days", "measurement": "Magnesium", "result": "1.94 mg/dL"}
{"SMILES": "C[C@]12CC[C@H](OCC[18F])C[C@H]1CC[C@@H]1[C@@H]2CC[C@]2(C)[C@@H](c3ccc(=O)oc3)CC[C@]12O", "test": "radio-HPLC", "test system": "mouse serum", "conditions": "6 h, 36 °C", "measurement": "radiochemical purity", "result": "> 95%"}
